Experimental data of several laboratories.
Mode: inhibitor
EGFR: Epidermal growth factor receptor (EGFR, Homo sapiens, UniProt P00533)
EGFR L858R/T790M: Epidermal growth factor receptor (EGFR, Homo sapiens, UniProt P00533, L858R/T790M)

| SMILES | target | observed | method | cells | IC50 [nM] |
| --- | --- | --- | --- | --- | --- |
| Cc1ccc2c(c1)nc(NC(=O)c1cccc(C(F)(F)F)c1)n2[C@H]1CC[C@H](N)CC1 | EGFR | enzyme activity | TR-FRET |  | 300 |
| COCC1CN(C2CCN(c3cc(OC)c(Nc4ncc(Br)c(Nc5ccc6c(c5P(C)(C)=O)OCCO6)n4)cc3C)CC2)C1 | Epidermal growth factor receptor (EGFR, Homo sapiens, UniProt P00533, C797S/L858R/T790M) | enzyme activity | TR-FRET |  | 0.11 |
| Cc1nn(-c2cccc(N)c2)c(=O)c2cnc(Nc3ccc(N4CCNCC4)cc3)nc12 | EGFR L858R/T790M | enzyme activity |  |  | > 10000 |
| C=CC(=O)Nc1cc(Nc2ncnc(Nc3ccccc3C(F)(F)F)n2)c(OC)cc1N(C)CCN(C)C | EGFR L858R/T790M | enzyme activity |  |  | 13 |
| COc1cc(N2CCOCC2)ccc1Nc1ncc(Cl)c(Nc2ccccc2NS(C)(=O)=O)n1 | Epidermal growth factor receptor (EGFR, Homo sapiens, UniProt P00533, L858R) | enzyme activity | TR-FRET |  | 7.83 |
| C=CC(=O)Nc1cc(Nc2ncnc(Nc3cc(Cl)c(F)cc3C(C)(C)O)n2)c(OC)cc1N1CCC(N(C)C)C1 (stereo not drawn) | EGFR | EGFR phosphorylation |  | A-431 | 12 |
| CCCCCCCCCCCC[N+]1(C)CCOCC1.O=C([O-])c1cc2ccccc2cc1O | EGFR | enzyme activity | ELISA |  | 7560 |
| C=CC(=O)Nc1cc(Nc2ncnc(Nc3cc(Cl)c(F)cc3C(C)(C)O)n2)c(OC)cc1N(C)CCN(C)C | EGFR | EGFR phosphorylation |  | A-431 | 7.6 |
| Cc1cc(NC2CCN(C)CC2)ccc1-c1cc2c(N3CCC[C@H](C(=O)NCc4ccc(OC(F)(F)F)cc4)C3)ncnc2[nH]1 | EGFR | enzyme activity | mobility shift |  | 981 |

Excerpt of the above:
| SMILES | target | observed | method | cells | IC50 [nM] |
| --- | --- | --- | --- | --- | --- |
| Cc1cc(NC2CCN(C)CC2)ccc1-c1cc2c(N3CCC[C@H](C(=O)NCc4ccc(OC(F)(F)F)cc4)C3)ncnc2[nH]1 | EGFR | enzyme activity | mobility shift |  | 981 |
